Assay results pooled from the literature.
Lines come from different studies, so protocols differ.

| SMILES | assay | system | setting | how to read | measurement | value |
| --- | --- | --- | --- | --- | --- | --- |
| C[C@H](Oc1ccc(Br)cc1-c1ccon1)C(=O)O | muscle velocity recovery cycles | human, tibialis anterior muscle | 600 mg once daily, multiple doses, 30 Hz train for 30 s | relative to: placebo | peak amplitude change | 13.4% |
| N#Cc1ccn2c(-c3ccncc3)c(-c3ccc(F)cc3)nc2c1 | kinase binding, competitor, MIB/MS competition, item: ATG1 | Candida albicans cell lysate | 100 nM | relative to: DMSO | log2 fold change | -0.0408 |
| OC(CCN1CCCCC1)(c1ccccc1)C1CC2C=CC1C2 (stereo not drawn) | resting-state EEG | healthy elderly humans | oral, 4 mg, eyes open, LS mean | relative to: baseline | change in EEG Beta3-power Pz-O2 | 6.3% |
| C[C@@H](NC(=O)N1C(=O)[C@H](Cc2ccnc(N)c2)[C@H]1C(=O)O)C1CCCCC1 | – | human | iv infusion, 1.0 mg/kg/h, 24 h | – | aPTT Emax | 56.3 s |
| O=C(O)CNC(=O)Cc1ccccc1 | – | ventricular cardiomyocytes, C57BL/6 mouse | dose not given, 0.24 s | – | sarcomere length | 1.64 µm |
| NC(=O)c1cnc2[nH]ccc2c1N[C@@H]1[C@@H]2CC3C[C@H]1C[C@@](O)(C3)C2 | CD4+ effector memory T cells, flow cytometry | Japanese humans, peripheral blood | 60 mg single dose | relative to: baseline | percent change | 0.2% |
| N#CCC1CCN(c2nc(Nc3ccc(N4CCC(O)CC4)cc3)c3c(=O)[nH]ncc3n2)CC1 | Olink multiplex, item: CDCP1 | human, serum | 80 mg, day 29 | relative to: baseline | fold change from baseline | -1.39 |
| Cc1n[nH]c2ccc(-c3cc(OC[C@@H](N)Cc4ccccc4)cnc3-c3ccoc3)cc12 | kinase binding, competitor, MIB/MS competition, item: TPK2 | Candida albicans cell lysate | 100 nM | relative to: DMSO | log2 fold change | -0.0872 |
| CC(C)NCC(O)c1ccc(O)c(O)c1 (stereo not drawn) | – | ventricular cardiomyocytes, C57BL/6 mouse | dose not given, 0.44 s | – | sarcomere length | 1.72 µm |

Excerpt of the above:
| SMILES | assay | system | setting | how to read | measurement | value |
| --- | --- | --- | --- | --- | --- | --- |
| N#Cc1ccn2c(-c3ccncc3)c(-c3ccc(F)cc3)nc2c1 | kinase binding, competitor, MIB/MS competition, item: ATG1 | Candida albicans cell lysate | 100 nM | relative to: DMSO | log2 fold change | -0.0408 |
